Experimental data collected from several papers.
Numbered parts are unrelated; each lists some results of a single study.
Chain of UniProt P37173 (whole entry, looked up): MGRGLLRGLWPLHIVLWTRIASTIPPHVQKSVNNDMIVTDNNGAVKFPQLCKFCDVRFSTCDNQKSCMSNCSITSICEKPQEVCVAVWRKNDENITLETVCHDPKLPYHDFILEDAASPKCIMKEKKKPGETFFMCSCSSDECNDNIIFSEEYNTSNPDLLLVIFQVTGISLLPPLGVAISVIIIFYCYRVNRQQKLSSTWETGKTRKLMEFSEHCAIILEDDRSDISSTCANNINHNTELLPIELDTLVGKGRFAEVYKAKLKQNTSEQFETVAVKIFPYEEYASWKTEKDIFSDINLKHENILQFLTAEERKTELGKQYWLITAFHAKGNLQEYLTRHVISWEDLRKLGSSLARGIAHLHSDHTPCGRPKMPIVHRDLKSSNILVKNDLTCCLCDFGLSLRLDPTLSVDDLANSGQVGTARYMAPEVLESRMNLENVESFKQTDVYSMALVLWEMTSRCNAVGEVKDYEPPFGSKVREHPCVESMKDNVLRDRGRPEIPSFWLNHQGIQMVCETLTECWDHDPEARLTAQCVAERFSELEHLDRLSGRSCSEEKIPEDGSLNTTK
Chain of UniProt Q15831 (whole entry, looked up): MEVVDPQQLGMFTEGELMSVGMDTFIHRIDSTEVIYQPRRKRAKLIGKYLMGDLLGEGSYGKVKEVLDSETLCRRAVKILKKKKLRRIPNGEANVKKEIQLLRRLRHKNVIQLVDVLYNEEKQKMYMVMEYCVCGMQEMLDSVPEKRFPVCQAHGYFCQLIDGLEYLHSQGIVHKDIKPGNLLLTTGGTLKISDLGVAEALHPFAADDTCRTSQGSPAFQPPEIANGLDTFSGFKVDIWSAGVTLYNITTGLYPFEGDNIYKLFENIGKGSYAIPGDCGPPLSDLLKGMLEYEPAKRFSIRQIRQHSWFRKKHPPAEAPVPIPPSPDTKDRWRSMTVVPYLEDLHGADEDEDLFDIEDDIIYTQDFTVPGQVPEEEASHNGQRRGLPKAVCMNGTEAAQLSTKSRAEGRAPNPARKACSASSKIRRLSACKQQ
Chain of UniProt Q14164 (whole entry, looked up): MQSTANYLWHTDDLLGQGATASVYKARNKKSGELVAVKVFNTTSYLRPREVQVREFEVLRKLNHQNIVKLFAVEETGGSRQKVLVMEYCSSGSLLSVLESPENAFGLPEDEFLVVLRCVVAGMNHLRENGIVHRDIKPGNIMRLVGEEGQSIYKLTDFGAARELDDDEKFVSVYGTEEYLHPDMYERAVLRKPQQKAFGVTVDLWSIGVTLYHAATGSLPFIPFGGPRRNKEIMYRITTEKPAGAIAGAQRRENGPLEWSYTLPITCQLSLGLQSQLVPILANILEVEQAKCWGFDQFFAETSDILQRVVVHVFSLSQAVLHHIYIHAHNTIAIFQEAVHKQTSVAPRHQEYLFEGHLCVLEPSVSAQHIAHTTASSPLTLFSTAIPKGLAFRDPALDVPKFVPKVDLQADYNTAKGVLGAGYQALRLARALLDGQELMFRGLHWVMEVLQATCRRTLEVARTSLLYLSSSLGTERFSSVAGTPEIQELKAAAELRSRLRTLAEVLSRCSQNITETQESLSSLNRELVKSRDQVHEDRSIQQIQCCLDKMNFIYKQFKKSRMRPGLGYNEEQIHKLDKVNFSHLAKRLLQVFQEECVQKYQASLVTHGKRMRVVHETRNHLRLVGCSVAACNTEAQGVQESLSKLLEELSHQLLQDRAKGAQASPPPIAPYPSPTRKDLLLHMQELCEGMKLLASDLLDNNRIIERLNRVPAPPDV
Chain of UniProt P41240 (whole entry, looked up): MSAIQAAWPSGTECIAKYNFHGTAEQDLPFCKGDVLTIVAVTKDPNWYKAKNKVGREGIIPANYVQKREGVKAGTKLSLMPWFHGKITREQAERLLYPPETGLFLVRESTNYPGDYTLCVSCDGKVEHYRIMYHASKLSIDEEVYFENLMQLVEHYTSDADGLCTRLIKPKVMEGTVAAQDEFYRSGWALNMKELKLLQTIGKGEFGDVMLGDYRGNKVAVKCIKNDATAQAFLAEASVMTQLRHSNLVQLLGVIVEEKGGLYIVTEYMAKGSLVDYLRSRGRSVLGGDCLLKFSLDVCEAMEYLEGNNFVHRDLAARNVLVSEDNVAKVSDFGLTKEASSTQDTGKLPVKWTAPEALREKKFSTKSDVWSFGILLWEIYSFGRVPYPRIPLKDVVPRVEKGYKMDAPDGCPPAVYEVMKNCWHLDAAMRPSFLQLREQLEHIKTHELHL
Chain of UniProt P06239 (whole entry, looked up): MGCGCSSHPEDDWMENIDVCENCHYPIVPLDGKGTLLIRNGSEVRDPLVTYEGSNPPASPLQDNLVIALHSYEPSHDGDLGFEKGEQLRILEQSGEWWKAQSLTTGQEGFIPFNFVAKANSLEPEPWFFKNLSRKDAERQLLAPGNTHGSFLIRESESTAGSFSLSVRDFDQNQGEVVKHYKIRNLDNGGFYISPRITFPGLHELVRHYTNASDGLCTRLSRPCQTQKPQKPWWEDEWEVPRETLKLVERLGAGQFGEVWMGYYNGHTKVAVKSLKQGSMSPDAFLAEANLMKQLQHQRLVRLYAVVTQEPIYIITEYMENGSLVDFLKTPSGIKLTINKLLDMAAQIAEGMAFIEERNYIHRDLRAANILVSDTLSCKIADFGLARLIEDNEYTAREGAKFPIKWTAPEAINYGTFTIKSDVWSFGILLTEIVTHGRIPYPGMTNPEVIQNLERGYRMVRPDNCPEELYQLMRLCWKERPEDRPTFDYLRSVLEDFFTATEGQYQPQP
Chain of UniProt Q9P1W9 (whole entry, looked up): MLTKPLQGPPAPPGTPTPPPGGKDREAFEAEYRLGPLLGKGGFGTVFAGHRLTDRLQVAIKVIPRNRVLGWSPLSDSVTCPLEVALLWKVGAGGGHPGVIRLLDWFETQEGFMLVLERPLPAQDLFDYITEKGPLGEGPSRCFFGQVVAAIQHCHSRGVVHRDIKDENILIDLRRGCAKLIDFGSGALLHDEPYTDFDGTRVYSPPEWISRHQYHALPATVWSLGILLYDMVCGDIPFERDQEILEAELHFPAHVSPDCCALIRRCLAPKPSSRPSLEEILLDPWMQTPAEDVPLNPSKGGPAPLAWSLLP
Chain of UniProt P32298 (whole entry, looked up): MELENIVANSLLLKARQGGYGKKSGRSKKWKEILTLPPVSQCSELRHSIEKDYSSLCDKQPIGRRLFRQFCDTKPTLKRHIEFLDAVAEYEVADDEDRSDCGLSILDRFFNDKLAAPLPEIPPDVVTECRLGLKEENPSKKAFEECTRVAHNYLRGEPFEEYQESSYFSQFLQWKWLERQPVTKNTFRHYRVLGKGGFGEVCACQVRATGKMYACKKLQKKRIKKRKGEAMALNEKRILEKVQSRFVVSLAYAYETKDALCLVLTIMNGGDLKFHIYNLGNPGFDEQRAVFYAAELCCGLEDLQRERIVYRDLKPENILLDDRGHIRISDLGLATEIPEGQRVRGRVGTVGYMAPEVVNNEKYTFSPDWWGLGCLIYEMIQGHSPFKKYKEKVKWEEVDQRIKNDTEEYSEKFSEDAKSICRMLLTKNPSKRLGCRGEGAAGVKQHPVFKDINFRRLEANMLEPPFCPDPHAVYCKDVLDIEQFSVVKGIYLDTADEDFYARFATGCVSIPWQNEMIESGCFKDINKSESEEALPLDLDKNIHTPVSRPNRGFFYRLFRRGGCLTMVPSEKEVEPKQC
Chain of UniProt Q9Y2U5 (whole entry, looked up): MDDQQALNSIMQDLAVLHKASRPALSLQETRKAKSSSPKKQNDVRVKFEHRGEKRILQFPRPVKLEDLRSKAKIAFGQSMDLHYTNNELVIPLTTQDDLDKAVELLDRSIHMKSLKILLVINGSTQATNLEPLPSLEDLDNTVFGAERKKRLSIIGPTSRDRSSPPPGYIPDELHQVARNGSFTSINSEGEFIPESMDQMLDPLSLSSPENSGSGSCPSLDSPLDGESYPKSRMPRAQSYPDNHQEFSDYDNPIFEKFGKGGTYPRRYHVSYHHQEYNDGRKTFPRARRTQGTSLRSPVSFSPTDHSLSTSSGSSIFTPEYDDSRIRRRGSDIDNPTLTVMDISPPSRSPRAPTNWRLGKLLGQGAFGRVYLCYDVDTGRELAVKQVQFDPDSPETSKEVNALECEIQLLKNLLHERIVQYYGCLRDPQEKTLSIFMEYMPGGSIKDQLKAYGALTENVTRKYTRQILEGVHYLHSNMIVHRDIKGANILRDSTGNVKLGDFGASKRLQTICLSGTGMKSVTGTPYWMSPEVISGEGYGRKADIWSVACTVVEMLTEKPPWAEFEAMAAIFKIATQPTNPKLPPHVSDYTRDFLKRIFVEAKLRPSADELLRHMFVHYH
Chain of UniProt Q13976 (whole entry, looked up): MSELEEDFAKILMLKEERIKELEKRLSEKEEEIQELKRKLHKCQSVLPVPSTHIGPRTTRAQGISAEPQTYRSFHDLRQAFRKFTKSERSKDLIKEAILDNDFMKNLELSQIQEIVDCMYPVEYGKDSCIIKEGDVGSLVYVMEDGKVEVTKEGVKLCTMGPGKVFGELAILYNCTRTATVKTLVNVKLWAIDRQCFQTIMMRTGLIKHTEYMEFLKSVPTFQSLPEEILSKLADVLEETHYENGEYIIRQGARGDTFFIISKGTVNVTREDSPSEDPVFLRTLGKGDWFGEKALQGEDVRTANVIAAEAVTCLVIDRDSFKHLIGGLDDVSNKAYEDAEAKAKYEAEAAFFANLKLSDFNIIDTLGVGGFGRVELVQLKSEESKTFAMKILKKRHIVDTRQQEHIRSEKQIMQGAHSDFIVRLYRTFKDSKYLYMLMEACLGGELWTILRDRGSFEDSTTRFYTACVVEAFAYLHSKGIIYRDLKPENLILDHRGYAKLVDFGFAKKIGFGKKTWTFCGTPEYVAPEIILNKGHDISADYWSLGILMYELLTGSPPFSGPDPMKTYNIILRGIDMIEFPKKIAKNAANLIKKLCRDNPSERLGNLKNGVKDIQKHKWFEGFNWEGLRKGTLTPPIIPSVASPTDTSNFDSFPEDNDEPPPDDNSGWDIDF

Series 1 — SMILES: CC(C)(O)c1cncc(-c2nc3ccc(F)cc3n2C2CC2)c1; read-out: cell-free assay; technique: competition with immobilised ligand; concentration: 1 µM; quantity: remaining binding
PAK4 (Homo sapiens, UniProt O96013): 100%
MAPK7 (Homo sapiens, UniProt Q13164): 100%
MAP3K2 (Homo sapiens, UniProt Q9Y2U5): 100%
EPHB4 (Homo sapiens, UniProt P54760): 100%
CDK8 (Homo sapiens, UniProt P49336): 95%
TLK1 (Homo sapiens, UniProt Q9UKI8): 100%
GRK4 (Homo sapiens, UniProt P32298): 100%
Ribosomal protein S6 kinase alpha-1, N-terminal kinase domain (RPS6KA1, Homo sapiens, UniProt Q15418): 100%
LCK (Homo sapiens, UniProt P06239): 100%
MAPK10 (Homo sapiens, UniProt P53779): 100%
CSK (Homo sapiens, UniProt P41240): 100%
MARK3 (Homo sapiens, UniProt P27448): 100%
PIM2 (Homo sapiens, UniProt Q9P1W9): 100%
Tyrosine-protein kinase JAK1, JH1 (JAK1, Homo sapiens, UniProt P23458): 100%
RET (Homo sapiens, UniProt P07949, V804L): 100%

Series 2 — technique: protein binding microarray; form: double-stranded DNA, one strand shown; matrix: in vitro; concentration: not given; baseline: not given; reading: higher = stronger binding; quantity: E-score
Target: Histone acetyltransferase KAT6A, winged helix 2, GST fusion (KAT6A, Homo sapiens, UniProt Q92794, residues 85-181)
Notes: 8-mer, flanks averaged, mean of 2 arrays, mostly near background
Target sequence (chain): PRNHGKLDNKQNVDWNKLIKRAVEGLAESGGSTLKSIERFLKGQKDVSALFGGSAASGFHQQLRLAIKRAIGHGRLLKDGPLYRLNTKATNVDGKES
CTTTGGTC: 0.0894
CCGTTGGC: 0.0883
CAGCGCTC: 0.00041
GCAGATAC: -0.026
AAATTCCC: -0.0737
AGGTGTAC: -0.0654
AGTAGGAA: -0.105
CCGCTTAA: 0.159

Series 3 — read-out: enzyme activity; action: inhibitor; concentration: 0.5 µM; baseline: control; quantity: remaining activity
Compound: NC(=O)c1ccc(N(C(N)=O)c2c(F)cccc2F)nc1-c1ccc(F)cc1F
PRKACA (Homo sapiens, UniProt P17612): 101%
IKBKB (Homo sapiens, UniProt O14920): 94.8%
STK11 (Homo sapiens, UniProt Q15831): 99.5%
cGMP-dependent protein kinase 1, isoform beta (PRKG1, Homo sapiens, UniProt Q13976): 95.7%
IKBKE (Homo sapiens, UniProt Q14164): 88%
PRKCA (Homo sapiens, UniProt P17252): 86%
STK39 (Homo sapiens, UniProt Q9UEW8): 93.7%
DAPK2 (Homo sapiens, UniProt Q9UIK4): 86.8%
CAMK2D (Homo sapiens, UniProt Q13557): 87.3%
STK10 (Homo sapiens, UniProt O94804): 93.8%
CAMKK2 (Homo sapiens, UniProt Q96RR4): 101%
TGFBR2 (Homo sapiens, UniProt P37173): 102%
MAPK9 (Homo sapiens, UniProt P45984): 93.5%

Other studies, line by line — technique: cross-linking MS
SARNP (Homo sapiens, UniProt P82979) — cross-linked residues (CHST4 (Homo sapiens, UniProt Q8NCG5); cell fractions; with: DSSO): K31 to K235
CHI3L2 (Homo sapiens, UniProt Q15782) — cross-linked residues (RPRD1A (Homo sapiens, UniProt Q96P16); cell fractions; with: DMTMM): K315 to D236
NPM1 (Homo sapiens, UniProt P06748) — cross-linked residues (ANK3 (Homo sapiens, UniProt Q12955); cell fractions; with: DSSO): K250 to T2038
NOP14 (Homo sapiens, UniProt P78316) — interaction screen (EMG1 (Homo sapiens, UniProt Q92979); hits only): cross-linked

A few entries again (series 2):
GCAGATAC: -0.026
AGGTGTAC: -0.0654
AAATTCCC: -0.0737
CAGCGCTC: 0.00041
CCGCTTAA: 0.159
CCGTTGGC: 0.0883
